Measured values of several laboratories.
Lines come from different studies, so protocols differ. ± gives the spread as reported.
Organism: Leishmania infantum

Structure (SMILES)	assay	test system	setting	scale	endpoint	result
Cc1cn([C@@H]2O[C@H](CO)[C@@H](O)[C@H]2O)c2ncnc(C)c12	parasite growth, imaging	mouse Macrophage	5 days, intracellular, amastigote	–	EC50	15.3 µM
COC(=O)c1c(C)ncn1CC(c1c[nH]c2ccc(C)cc12)c1c[nH]c2ccc(C)cc12	viability, MTS	human clinical isolate promastigote	72 h	–	IC50	6.1 µM
C/C=C(\C)C(=O)NCc1ccc2c(c1)C(=O)CC(C)(C)N2	–	bone marrow-derived macrophages, intracellular amastigotes	24 h	–	IC50	> 10 µM
CCOC(=O)c1c(C)[nH]c(-c2c[nH]c3ccccc23)c1C#N	parasite growth	–	20 µM, 72 h, promastigote	–	inhibition	-46.6%
CCCCCCCCCCCCCCCCOP(=O)([O-])OCC[N+](C)(C)C	–	intracellular amastigotes, ex vivo mouse splenic explants	72 h	–	EC50	2.4 ± 0.21 µM
Cc1ncnc2c1c(CCc1ccccc1)cn2[C@@H]1O[C@H](CO)[C@@H](O)[C@H]1O	parasite growth, imaging	mouse Macrophage	5 days, intracellular, amastigote	–	EC50	> 64 µM
COC(=O)c1c(C)ncn1CC(c1c[nH]c2cc(Br)ccc12)c1c[nH]c2cc(Br)ccc12	viability, MTS	human clinical isolate promastigote	72 h	–	IC50	7.5 µM
CC1(C)CC(=O)c2cc(CNC(=O)/C=C/c3cccs3)ccc2N1	–	bone marrow-derived macrophages, intracellular amastigotes	24 h	–	IC50	> 10 µM
CCOC(=O)c1c(C#N)c(-c2c[nH]c3ccccc23)n(N)c1C	parasite growth	–	20 µM, 72 h, promastigote	–	inhibition	-49.8%
Cc1cn(CC(c2cn(C)c3ccccc23)c2cn(C)c3ccccc23)nn1	viability, MTS	human clinical isolate promastigote	72 h	–	IC50	7.4 µM
CC(C)=CC(=O)NCc1ccc2c(c1)C(=O)CC(C)(C)N2	–	bone marrow-derived macrophages, intracellular amastigotes	24 h	–	IC50	> 10 µM
Cc1ncnc2c1c(C1=CCCCC1)cn2[C@@H]1O[C@H](CO)[C@@H](O)[C@H]1O	parasite growth, imaging	mouse Macrophage	5 days, intracellular, amastigote	–	EC50	> 64 µM
C[C@@H]1[C@H](O)[C@@H](C)/C=C/C=C/C=C/C=C/C=C/C=C/C=C/[C@H](O[C@@H]2O[C@H](C)[C@@H](O)[C@H](N)[C@@H]2O)C[C@@H]2O[C@](O)(C[C@@H](O)C[C@@H](O)[C@H](O)CC[C@@H](O)C[C@@H](O)CC(=O)O[C@H]1C)C[C@H](O)[C@H]2C(=O)O	viability, MTS	human clinical isolate promastigote	72 h	–	IC50	0.084 µM
CCCCCc1cn([C@@H]2O[C@H](CO)[C@@H](O)[C@H]2O)c2ncnc(C)c12	parasite growth, imaging	mouse Macrophage	5 days, intracellular, amastigote	–	EC50	> 64 µM
Cc1ccc(Cc2ccc3c(c2)C(=O)CC(C)(C)O3)cc1	–	bone marrow-derived macrophages, intracellular amastigotes	24 h	–	IC50	5 to 10 µM
Cc1ncnc2c1c(SC(F)(F)F)cn2[C@@H]1O[C@H](CO)[C@@H](O)[C@H]1O	parasite growth, imaging	mouse Macrophage	5 days, intracellular, amastigote	–	EC50	> 64 µM
O=C(CN1C(=O)Cc2c([nH]c3ccc(Br)cc23)-c2ccc(Cl)cc21)N1CCNCC1	parasite growth	J774	24 h, intracellular, amastigote	–	EC50	0.9 µM
c1ccc2c(NCCCn3ccnc3)nncc2c1	–	J774.2 macrophages	IC25, 240 h, day 10	reference: untreated	infection inhibition	47%
COC(=O)c1c(C)ncn1CC(c1cn(C)c2ccccc12)c1cn(C)c2ccccc12	viability, MTS	human clinical isolate promastigote	72 h	–	IC50	5.5 µM
CCc1cn([C@@H]2O[C@H](CO)[C@@H](O)[C@H]2O)c2ncnc(N)c12	parasite growth, imaging	mouse Macrophage	5 days, intracellular, amastigote	–	EC50	21.6 µM
c1ccc2c(Cc3c[nH]c4ccccc34)c[nH]c2c1	viability, MTS	human clinical isolate promastigote	72 h	–	IC50	> 20 µM
Cc1ncnc2c1c(CCC(C)C)cn2[C@@H]1O[C@H](CO)[C@@H](O)[C@H]1O	parasite growth, imaging	mouse Macrophage	5 days, intracellular, amastigote	–	EC50	> 64 µM
C/C=C(\CO)C(=O)OCc1ccc2c(c1)C(=O)CC(C)(C)O2	–	bone marrow-derived macrophages, intracellular amastigotes	24 h	–	IC50	5 to 10 µM
Cc1ncnc2c1c(C1CCOCC1)cn2[C@@H]1O[C@H](CO)[C@@H](O)[C@H]1O	parasite growth, imaging	mouse Macrophage	5 days, intracellular, amastigote	–	EC50	5.31 µM
C[C@@H]1[C@H](O)[C@@H](C)/C=C/C=C/C=C/C=C/C=C/C=C/C=C/[C@H](O[C@@H]2O[C@H](C)[C@@H](O)[C@H](N)[C@@H]2O)C[C@@H]2O[C@](O)(C[C@@H](O)C[C@@H](O)[C@H](O)CC[C@@H](O)C[C@@H](O)CC(=O)O[C@H]1C)C[C@H](O)[C@H]2C(=O)O	–	bone marrow-derived macrophages, intracellular amastigotes	24 h	–	IC50	0.22 ± 0.22 µM
